{"data": "Results gathered from unrelated publications", "technique": "steady-state kinetics", "B1": "FNO G29W (Thermobifida fusca, UniProt Q47RA9); chain MIMIMASKSSPHDLPDVSGLSIAVLGGTWDQGRGLARRFAMAGHEVILGSRSAERAQAVAAELGEGLPVRGMDNAGAAEAGDVVIVAVPWDGHRALLESLKDVLAGKIVVDCVNPLGFDKRGAYALPVEEGSAAEQAAAILPDSRVVAAFHHVSAVLLLDPEVEKVDLDVLVLGDDREATDVVRALAARIPGVRGVYGGRLRNAHQVEAFTANLISINRRYKAHAGIRITDI", "B2": "TenA_E (Arabidopsis thaliana, UniProt Q9ASY9); chain MEKRGVIDTWIDKHRSIYTAATRHAFVVSIRDGSVDLSSFRTWLGQDYLFVRRFVPFVASVLIRACKDSGESSDMEVVLGGIASLNDEIEWFKREGSKWDVDFSTVVPQRANQEYGRFLEDLMSSEVKYPVIMTAFWAIEAVYQESFAHCLEDGNKTPVELTGACHRWGNDGFKQYCSSVKNIAERCLENASGEVLGEAEDVLVRVLELEVAFWEMSRGGQ", "B3": "FMO3 E158K (Homo sapiens, UniProt P31513); chain GKKVAIIGAGVSGLASIRSCLEEGLEPTCFEKSNDIGGLWKFSDHAEEGRASIYKSVFSNSSKEMMCFPDFPFPDDFPNFMHNSKIQEYIIAFAKEKNLLKYIQFKTFVSSVNKHPDFATTGQWDVTTERDGKKESAVFDAVMVCSGHHVYPNLPKKSFPGLNHFKGKCFHSRDYKEPGVFNGKRVLVVGLGNSGCDIATELSRTAEQVMISSRSGSWVMSRVWDNGYPWDMLLVTRFGTFLKNNLPTAISDWLYVKQMNARFKHENYGLMPLNGVLRKEPVFNDELPASILCGIVSVKPNVKEFTETSAIFEDGTIFEGIDCVIFATGYSFAYPFLDESIIKSRNNEIILFKGVFPPLLEKSTIAVIGFVQSLGAAIPTVDLQSRWAAQVIKGTCTLPSMEDMMNDINEKMEKKRKWFGKSETIQTDYIVYMDELSSFIGAKPNIPWLFLTDPKLAMEVYFGPCSPYQFRLVGPGQWPGARNAILTQWDRSLKPMQTRVVGRLQKPCFFFHWLKLFAIPILLIAVFLVLT", "B4": "oxdC T165S (Bacillus subtilis, UniProt O34714); chain MKKQNDIPQPIRGDKGATVKIPRNIERDRQNPDMLVPPETDHGTVSNMKFSFSDTHNRLEKGGYAREVTVRELPISENLASVNMRLKPGAIRELHWHKEAEWAYMIYGSARVTIVDEKGRSFIDDVGEGDLWYFPSGLPHSIQALEEGAEFLLVFDDGSFSENSSFQLTDWLAHTPKEVIAANFGVTKEEISNLPGKEKYIFENQLPGSLKDDIVEGPNGEVPYPFTYRLLEQEPIESEGGKVYIADSTNFKVSKTIASALVTVEPGAMRELHWHPNTHEWQYYISGKARMTVFASDGHARTFNYQAGDVGYVPFAMGHYVENIGDEPLVFLEIFKDDHYADVSLNQWLAMLPETFVQAHLDLGKDFTDVLSKEKHPVVKKKCSK", "B5": "CODH (Afipia carboxidovorans, UniProt P19920); chain MIPGSFDYHRPKSIADAVALLTKLGEDARPLAGGHSLIPIMKTRLATPEHLVDLRDIGDLVGIREEGTDVVIGAMTTQHALIGSDFLAAKLPIIRETSLLIADPQIRYMGTIGGNAANGDPGNDMPALMQCLGAAYELTGPEGARIVAARDYYQGAYFTAIEPGELLTAIRIPVPPTGHGYAYEKLKRKIGDYATAAAAVVLTMSGGKCVTASIGLTNVANTPLWAEEAGKVLVGTALDKPALDKAVALAEAITAPASDGRGPAEYRTKMAGVMLRRAVERAKARAKN", "B6": "UCK2 (Homo sapiens, UniProt Q9BZX2); chain MAGDSEQTLQNHQQPNGGEPFLIGVSGGTASGKSSVCAKIVQLLGQNEVDYRQKQVVILSQDSFYRVLTSEQKAKALKGQFNFDHPDAFDNELILKTLKEITEGKTVQIPVYDFVSHSRKEETVTVYPADVVLFEGILAFYSQEVRDLFQMKLFVDTDADTRLSRRVLRDISERGRDLEQILSQYITFVKPAFEEFCLPTKKYADVIIPRGADNLVAINLIVQHIQDILNGGPSKRQTNGCLNGYTPSRKRQASESSSRPH", "note": "Each line is one published result; not all experiments were run side by side.", "chain of UniProt P07379 (whole entry, looked up)": "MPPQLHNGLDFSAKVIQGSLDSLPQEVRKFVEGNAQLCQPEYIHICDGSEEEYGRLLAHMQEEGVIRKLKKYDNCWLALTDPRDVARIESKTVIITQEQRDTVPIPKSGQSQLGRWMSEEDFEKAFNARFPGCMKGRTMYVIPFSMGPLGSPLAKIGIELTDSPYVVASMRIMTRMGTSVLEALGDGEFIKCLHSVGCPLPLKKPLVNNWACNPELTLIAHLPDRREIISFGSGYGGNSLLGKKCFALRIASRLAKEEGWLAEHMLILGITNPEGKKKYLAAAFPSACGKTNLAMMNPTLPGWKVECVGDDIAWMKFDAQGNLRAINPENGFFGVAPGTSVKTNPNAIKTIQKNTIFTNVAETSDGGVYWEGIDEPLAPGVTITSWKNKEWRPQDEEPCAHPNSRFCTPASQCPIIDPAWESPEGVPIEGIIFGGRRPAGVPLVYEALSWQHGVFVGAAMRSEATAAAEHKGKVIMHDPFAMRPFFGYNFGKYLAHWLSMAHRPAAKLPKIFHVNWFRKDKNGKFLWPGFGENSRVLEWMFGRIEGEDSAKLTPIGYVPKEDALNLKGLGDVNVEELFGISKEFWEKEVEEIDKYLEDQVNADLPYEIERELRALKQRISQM", "chain of UniProt Q9STE6 (whole entry, looked up)": "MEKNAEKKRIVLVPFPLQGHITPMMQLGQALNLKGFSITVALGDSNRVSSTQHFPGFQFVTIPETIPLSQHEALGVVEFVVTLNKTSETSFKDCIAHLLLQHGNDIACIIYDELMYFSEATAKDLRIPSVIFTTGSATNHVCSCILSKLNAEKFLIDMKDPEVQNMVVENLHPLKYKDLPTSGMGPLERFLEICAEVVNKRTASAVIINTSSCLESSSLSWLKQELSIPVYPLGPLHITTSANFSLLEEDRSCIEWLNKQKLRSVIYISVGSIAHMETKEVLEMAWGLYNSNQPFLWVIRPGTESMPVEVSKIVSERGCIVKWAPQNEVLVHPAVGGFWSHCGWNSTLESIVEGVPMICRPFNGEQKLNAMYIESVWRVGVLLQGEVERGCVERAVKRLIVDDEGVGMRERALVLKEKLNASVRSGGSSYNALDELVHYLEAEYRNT", "chain of UniProt P49058 (whole entry, looked up)": "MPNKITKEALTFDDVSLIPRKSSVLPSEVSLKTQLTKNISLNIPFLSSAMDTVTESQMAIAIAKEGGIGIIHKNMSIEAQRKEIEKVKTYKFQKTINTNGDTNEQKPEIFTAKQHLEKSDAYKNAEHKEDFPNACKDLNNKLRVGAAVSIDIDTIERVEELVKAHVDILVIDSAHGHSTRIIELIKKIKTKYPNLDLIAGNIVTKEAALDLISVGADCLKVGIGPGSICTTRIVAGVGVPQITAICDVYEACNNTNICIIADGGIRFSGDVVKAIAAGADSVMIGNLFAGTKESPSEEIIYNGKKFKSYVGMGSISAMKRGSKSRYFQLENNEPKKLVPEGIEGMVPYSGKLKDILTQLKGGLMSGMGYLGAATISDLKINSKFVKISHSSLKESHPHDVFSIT"}
{"Molecule": "NahK (Pseudomonas putida, UniProt Q1XGK3)", "substrate": "O=C(O)C/C=C/C(=O)C(=O)O", "pH": "pH 7.4", "temperature": "25 °C", "notes": "sodium phosphate 20 mM", "together with": "MgCl2 5 mM", "Km": "19.9 µM"}
{"Molecule": "B1 (FNO G29W)", "substrate": "NC(=O)c1ccc[n+](Cc2ccccc2)c1", "pH": "pH 8", "temperature": "25 °C", "together with": "F420H2 40 µM", "Km": "4300 µM"}
{"Molecule": "B2 (TenA_E)", "substrate": "Cc1ncc(CN)c(N)n1", "pH": "pH 7.5", "temperature": "30 °C", "notes": "amino-HMP aminohydrolase activity", "together with": "450 mM glycine betaine", "Km": "1820 µM"}
{"Molecule": "B3 (FMO3 E158K)", "substrate": "CN1CCC[C@H]1c1cccnc1", "sample": "HEK293 microsomes", "temperature": "37 °C", "notes": "not purified", "together with": "NADPH regenerating system", "Km": "1600 µM"}
{"Molecule": "B4 (oxdC T165S)", "substrate": "O=C(O)C(=O)O", "pH": "pH 4.2", "temperature": "25 °C", "Km": "9000 µM"}
{"Molecule": "enzyme (Arabidopsis thaliana, UniProt Q9STE6)", "substrate": "O=c1ccn([C@@H]2O[C@H](CO[P@@](=O)(O)O[P@@](=O)(O)O[C@H]3O[C@H](CO)[C@@H](O)[C@H](O)[C@H]3O)[C@@H](O)[C@H]2O)c(=O)[nH]1", "pH": "pH 7.5", "temperature": "25 °C", "Km": "8.79 µM"}
{"Molecule": "Pck1 (Rattus norvegicus, UniProt P07379)", "substrate": "O=C(O)CC(=O)C(=O)O", "pH": "pH 7.5", "temperature": "25 °C", "together with": "OAA, GTP", "Km": "52 µM"}
{"Molecule": "B5 (CODH)", "substrate": "O=C1C=CC(=O)C=C1", "pH": "pH 7.2", "temperature": "25 °C", "notes": "anaerobic", "together with": "CO saturating", "Km": "16.4 µM"}
{"Molecule": "B6 (UCK2)", "substrate": "O=c1ccn([C@@H]2O[C@H](CO)[C@@H](O)[C@H]2O)c(=O)[nH]1", "pH": "pH 7.2", "temperature": "25 °C", "notes": "KCl 100 mM", "together with": "ATP 100–200 µM", "Km": "58 µM"}
{"Molecule": "enzyme (Borreliella burgdorferi, UniProt P49058)", "substrate": "O=P(O)(O)OC[C@H]1O[C@@H](n2cnc3c(O)ncnc32)C[C@@H]1O", "pH": "pH 8", "temperature": "25 °C", "Km": "66 µM"}
{"Molecule": "PGDH1 (Amborella trichopoda, UniProt U5D351)", "substrate": "O=C(O)[C@H](O)COP(=O)(O)O", "pH": "pH 9", "temperature": "25 °C", "notes": "NaCl 0.1 M, apparent", "together with": "NAD+", "Km": "815 µM"}
{"Molecule": "protein (UniProt M4ZR24)", "substrate": "O=c1ccn([C@@H]2O[C@H](CO)[C@@H](O)[C@H]2O)c(=O)[nH]1", "notes": "phosphorolysis, single substrate", "together with": "phosphate", "Km": "430 µM"}
